Measured values pooled from the literature.
Parts stem from different laboratories: compare values within a part only.

Study 1 — technique: Spec-seq; form: double-stranded DNA, one strand shown; matrix: in vitro; concentration: not given; notes: whole probe, mean of replicates; reference: not given; direction: lower = stronger binding
Target: POU, POU domain (Salpingoeca helianthica)
Target sequence (chain): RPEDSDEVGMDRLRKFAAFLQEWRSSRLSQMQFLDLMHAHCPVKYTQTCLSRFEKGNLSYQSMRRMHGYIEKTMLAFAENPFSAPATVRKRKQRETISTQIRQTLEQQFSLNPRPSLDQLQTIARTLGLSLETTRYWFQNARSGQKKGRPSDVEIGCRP
For `GAGTCGTCTCGTCAGCACTCGTTAATCCGTAGAGCACTCAGGTC`, “relative binding energy” read -1.02 ln ratio.
Under “relative binding energy”, `GAGTCGTCTCGTCAGCACATAGCTATCCGTAGAGCACTCAGGTC` is recorded as 0.798 ln ratio.
Under “relative binding energy”, `GAGTCGTCTCGTCAGCACACTCTAATCCGTAGAGCACTCAGGTC` is recorded as 0.718 ln ratio.

Study 2 — technique: universal PBM; form: double-stranded DNA, one strand shown; matrix: in vitro; concentration: not given; direction: higher = stronger binding
Target: Sal-like protein 4, full length isoform B (SALL4, Homo sapiens, UniProt Q9UJQ4-2, residues 1-616)
Notes: 8-mer, flanks averaged, mean of replicates
The E-score of `CCGACATA` is reported as -0.0476.
With `GGCTCGGA` the E-score was -0.25.
`AAGTTCCC` has an E-score of -0.241.
`CAAGGGTC` has an E-score of -0.2.
For `ACCAAATC`, the E-score was -0.0526.

Study 3 — technique: protein binding microarray; form: double-stranded DNA, one strand shown; matrix: in vitro; concentration: not given; reference: not given; direction: higher = stronger binding
Target: Histone acetyltransferase KAT6A, both winged helices, GST fusion (KAT6A, Homo sapiens, UniProt Q92794, residues 1-181)
Notes: 8-mer, flanks averaged, mean of 2 arrays, mostly near background
Residues (chain): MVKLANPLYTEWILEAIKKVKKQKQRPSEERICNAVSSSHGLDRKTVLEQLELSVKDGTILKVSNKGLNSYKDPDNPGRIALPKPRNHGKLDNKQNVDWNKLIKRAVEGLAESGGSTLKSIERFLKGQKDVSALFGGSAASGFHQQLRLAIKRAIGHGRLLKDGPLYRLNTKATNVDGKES
With `ATTATTTA` the E-score was -0.0206.
`GTGTCGCA` gave an E-score of 0.142.
The E-score of `ATGACTCG` is reported as -0.0887.
For `AGAACAGG`, the E-score was -0.0931.

Other studies, line by line
With `PhoQ, residues 284 288 289 292 302 303 AGHLVA` the fold induction was 1.19 (PhoP, residues 12 14 15 18 19 FWNTL (Escherichia coli, UniProt P23836); Sort-seq, refers to: YFP reporter; E. coli; PhoQ-PhoP variant library, added: 10 µM Mg2+; reference: high Mg2+ state, higher = stronger signaling).

For quick reference, copied from above (study 2):
The E-score of `CCGACATA` is reported as -0.0476.
With `GGCTCGGA` the E-score was -0.25.
